# Measurements collected from several papers.
# Each line is one published result; not all experiments were run side by side. ± gives the spread as reported.
Compound,test,system,conditions,how to read,measurement,result
[123I]c1cncc(OC[C@@H]2CCN2)c1,SPECT,"human, fusiform gyrus","intravenous bolus, 8.6 mCi",reference: tissue over plasma,tissue/plasma ratio,12.7
CC(=O)N[C@H](CCCCNC(=O)C(C)F)C(=O)N[C@@H](CS)C(=O)N[C@@H](CS)C(=O)N[C@@H](CCC(=O)O)C(=O)N[C@@H](Cc1c[nH]cn1)C(=O)N[C@H](Cc1ccccc1)C(=O)N[C@@H](CCCNC(=N)N)C(=O)N[C@@H](Cc1c[nH]c2ccccc12)C(=O)N[C@@H](CS)C(=O)N[C@@H](CCCNC(=N)N)C(=O)N1CCC[C@H]1C(=O)N[C@H](C(N)=O)C(C)C (some centres unmarked) [fluorine-18 labelled],,"nude mice, A375M xenograft, muscle","intravenous, 2 h",,tissue uptake,0.19 ± 0.08 %ID/g
CC(C)C[C@H](NC(=O)[C@H](CCC(=O)O)NC(=O)[C@H](CCC(=O)O)NC(=O)[C@H](CC(=O)O)NC(=O)[C@H](CCC(=O)O)NC(=O)[C@H](CCC(=O)O)NC(=O)[C@H](CCC(=O)O)NC(=O)[C@@H](N)CC(=O)O)C(=O)O,,"rat, plasma","intravenous, 11.0 mg/kg single dose, 15 min",,plasma concentration,10300 ng/mL
CSCC[C@@H]1NC(=O)[C@H](CC(=O)O)NC(=O)CNC(=O)[C@H](CCCNC(=N)N)NC(=O)[C@H](C)NC(=O)[C@H](CCC(=O)O)NC(=O)[C@H](CCCNC(=N)N)NC(=O)[C@@H]2CSSC[C@@H]3NC(=O)[C@H](CO)NC(=O)[C@H]([C@@H](C)O)NC(=O)[C@@H]4CCCN4C(=O)[C@H](C)NC(=O)[C@H](Cc4c[nH]c5ccccc45)NC(=O)[C@H](CC(=O)O)NC(=O)CNC(=O)[C@H](CCCNC(=N)N)NC(=O)CNC(=O)[C@H](CCC(N)=O)NC(=O)[C@@H]4CCCN4C(=O)[C@@H](NC(=O)CNC(=O)C(C)F)CSSC[C@H](NC(=O)CNC(=O)[C@H](C)NC(=O)[C@H](CC(C)C)NC(=O)[C@H](CSSC[C@@H](C(=O)NCC(N)=O)NC(=O)[C@H]([C@@H](C)O)NC(=O)[C@H](CCCNC(=N)N)NC(=O)[C@@H]4CCCN4C1=O)NC(=O)[C@H](CC(=O)O)NC(=O)[C@H](CO)NC(=O)[C@H](CC(=O)O)NC(=O)[C@H](CCC(N)=O)NC(=O)[C@H](CO)NC3=O)C(=O)N[C@@H](C(C)C)C(=O)N2 (some centres unmarked) [fluorine-18 labelled],,"nude mouse, U-87 MG xenograft, skin","intravenous, 2.5 h, added: cyclo(RGDyK) co-injected",,tissue uptake,0.27 ± 0.01 %ID/g
CSCC[C@H](N)C(=O)N[C@@H](CC(N)=O)C(=O)N[C@@H](Cc1ccccc1)C(=O)N[C@@H](CCCNC(=N)N)C(=O)N1CCC[C@H]1C(=O)NCC(=O)N[C@H](C(=O)N[C@@H](CC(C)C)C(=O)N[C@@H](CO)C(=O)N[C@@H](CO)C(=O)N[C@@H](CCCNC(=N)N)C(=O)N[C@@H](CCC(N)=O)C(=O)N[C@@H](CC(C)C)C(=O)NCC(=O)N[C@@H](CC(C)C)C(=O)N1CCC[C@H]1C(=O)NCC(=O)N1CCC[C@H]1C(=O)N1CCC[C@H]1C(=O)N[C@@H](CC(=O)O)C(=O)N[C@H](C(=O)N1CCC[C@H]1C(=O)N[C@@H](CC(=O)O)C(=O)N[C@@H](Cc1c[nH]cn1)C(=O)N[C@@H](C)C(=O)N[C@@H](C)C(=O)N[C@@H](Cc1ccc(O)cc1)C(=O)N[C@@H](Cc1c[nH]cn1)C(=O)N1CCC[C@H]1C(=O)N[C@@H](Cc1ccccc1)C(=O)O)C(C)C)C(C)C,LC-MS/MS,human serum,"concentration not given, 4 h, room temperature, tube without gel separator",reference: initial concentration,change in serum concentration,-11.7 ± 20%
O=C(c1ccc(F)c(F)c1Nc1ccc(I)cc1F)N1CC(O)([C@@H]2CCCCN2)C1,measured: retinal detachment,human patients,"oral, 1 mg/kg, dose expansion, grade G2",,treatment-related adverse events,0%
CN[C@@](C)(C[18F])C(=O)O,,"mouse, muscle","2 h, tumour-bearing",,tracer uptake,1.4 %ID/g
Cc1c(P(=S)(c2ccccc2)c2ccccc2)n2ccccc2[n+]1C/C=C/c1ccccc1,,"mouse, plasma","intraperitoneal, 10 mg/kg, 8 h",,plasma concentration,99 ng/mL
CC(=O)c1c(C)c2cnc(Nc3ccc(N4CCNCC4)cn3)nc2n(C2CCCC2)c1=O,,"Japanese patients, advanced solid tumours",once daily 3 weeks on 1 off,,maximum tolerated dose,125 mg
N[C@@H](CCCCNP(=O)(O)O)C(=O)O,,,"100 µM, 180 min, no enzyme",,non-enzymatic hydrolysis,> 40%
O=c1oc2c(O)c(O)cc3c(=O)oc4c(O)c(O)cc1c4c23,potentiometric titration,"water, extrapolated from methanol/water",25 °C,,pKa2,7.04

# For quick reference, copied from above:
Compound,test,system,conditions,how to read,measurement,result
O=C(c1ccc(F)c(F)c1Nc1ccc(I)cc1F)N1CC(O)([C@@H]2CCCCN2)C1,measured: retinal detachment,human patients,"oral, 1 mg/kg, dose expansion, grade G2",,treatment-related adverse events,0%
